{"data": "Experimental data from different studies", "note": "“And” joins repeats or separate records; there may be more than shown. ± marks the error that the study gave."}
{"Structure (SMILES)": "CCNc1cc2c(cc1C)C1(c3cc(C)c(NCC)cc3O2)c2ccccc2C(=O)N1N=Cc1c[c-]c(-c2ccccn2)cc1.Cc1c(C)c(-c2ccc(-c3ccccc3)cc2)[c-](C)c1C.[Cl-].[Ir+3]", "target or system": "A549", "test": "PI flow cytometry", "setting": "2 x IC50, 24 h", "quantity": "S phase cells", "value": "33.6 ± 0.23%"}
{"Structure (SMILES)": "CN1CCCNC(=O)c2cccc(c2)C(=O)NCCCN(C)CCCNc2cccc3c2C(=O)c2cccc(c2C3=O)NCCC1", "target or system": "SAS", "test": "RNA-Seq, refers to: NFRKB mRNA", "setting": "1 µM, 6 h", "how to read": "reference: untreated cells", "quantity": "log2 fold change", "value": -1.32}
{"Structure (SMILES)": "CNS(=O)(=O)Nc1nccc(Cc2c(C)c3ccc(Oc4ncccc4F)cc3oc2=O)c1F", "target or system": "A204", "test": "cell viability", "setting": "7 days", "quantity": "IC50", "value": "> 1000 nM"}
{"Structure (SMILES)": "N#Cc1cccc(/C=C/C(=O)c2ccc(O)cc2)c1", "target or system": "U-87 MG", "test": "refers to: CTH", "setting": "concentration not given", "how to read": "reference: untreated", "quantity": "fold change", "value": 41.9}
{"Structure (SMILES)": "COc1ccc(-c2cc3c(N4CCC[C@H](C(=O)NCc5ccc(OC(F)(F)F)cc5)C4)ncnc3[nH]2)cn1", "target or system": "NCI-H2228", "test": "cell growth or viability, MTT", "setting": "0.2 µg/mL, 72 h", "quantity": "inhibition", "value": "61.9%"}
{"Structure (SMILES)": "CCCCCCCCCCCCCCCC(=O)OCC(CSC[C@H](N)C(=O)N[C@@H](CO)C(=O)N[C@@H](CCCCN)C(=O)N[C@@H](CCCCN)C(=O)N[C@@H](CCCCN)C(=O)N[C@@H](CCCCN)C(=O)NCCCCCC(=O)N[C@@H](CCCCN)C(=O)N[C@@H](CC(C)C)C(=O)N[C@H](C(=O)N[C@@H](Cc1ccccc1)C(=O)N[C@@H](Cc1ccccc1)C(=O)N[C@@H](Cc1ccc2ccccc2c1)C(=O)O)C(C)C)OC(=O)CCCCCCCCCCCCCCC (some centres unmarked)", "target or system": "BV-2", "test": "Western blot, refers to: NLRP3", "setting": "concentration not given", "how to read": "reference: control", "quantity": "relative protein level", "value": "2.12 and 2.06"}
{"Structure (SMILES)": "COc1ccc2c(c1)OC1=C(C(=O)CCC1)C2c1c[nH]c2ccccc12 (centres unmarked)", "target or system": "mouse preadipocytes", "test": "qPCR, refers to: aP2", "setting": "IC20, 14 days, adipogenic induction", "how to read": "reference: untreated cells", "quantity": "mRNA level", "value": "decreased"}
{"Structure (SMILES)": "CCCC(=O)N1CCN(c2ccc(NC(=O)c3ccc([N+](=O)[O-])o3)cc2Cl)CC1", "target or system": "LDR", "test": "silenced CMV-GFP reporter derepression, qHTS", "quantity": "Emax", "value": "68%"}
{"Structure (SMILES)": "Cc1ccc(-n2cc(CSc3nc4ccccc4n3Cc3cn(-c4ccc(C)cc4)nn3)nn2)cc1", "target or system": "Caco-2", "test": "MTT", "setting": "3.91 ppm", "quantity": "viability", "value": "94.5%"}
{"Structure (SMILES)": "Cn1ncc2cc(-c3cncc(Cl)c3N3CCC4(CCNC4=O)CC3)ccc21", "target or system": "LS174T", "test": "gene expression, microarray, refers to: SEMA4D mRNA", "setting": "concentration not given, 4 h", "how to read": "reference: untreated cells", "quantity": "log2 fold change", "value": 1.06}
{"Structure (SMILES)": "Cc1cc(NC2CCN(C)CC2)ccc1-c1cc2c(N3CCC[C@H](C(=O)Nc4cccc(Cl)c4)C3)ncnc2[nH]1", "target or system": "NCI-H2228", "test": "cell growth or viability, MTT", "setting": "0.2 µg/mL, 72 h", "quantity": "inhibition", "value": "63.1%"}
{"Structure (SMILES)": "O=C(C[Se]C(=O)c1ccccc1Nc1ccccc1)Nc1cccc(C(F)(F)F)c1", "target or system": "NCI60 NSCLC subpanel", "test": "NCI60 five-dose screen", "quantity": "GI50", "value": "1710 nM"}
{"Structure (SMILES)": "COC(=O)c1cc(NC2=NC(=O)C(=Cc3ccc(N(C)C)cc3)S2)ccc1OC(C)=O", "target or system": "MCF7", "test": "GC-MS, refers to: L-Valine", "setting": "1 µM", "how to read": "reference: DMSO", "quantity": "metabolite level", "value": "-0.19 fold change"}
{"Structure (SMILES)": "O=C1CCP(=O)(c2ccccc2)CC1", "target or system": "SW480", "test": "MTT", "setting": "72 h", "how to read": "reference: IC50 HaCaT over IC50 SW480", "quantity": "selectivity index", "value": 1}
{"Structure (SMILES)": "O=C(NCc1ccc(OC(F)(F)F)cc1)[C@H]1CCCN(c2ncnc3[nH]c(-c4ccccc4)cc23)C1", "target or system": "NCI-H2228", "test": "cell growth or viability, MTT", "setting": "0.008 µg/mL, 72 h", "quantity": "inhibition", "value": "1.76%"}
{"Structure (SMILES)": "CCN(CC)CC(=O)Nc1cccc(-n2cc(-c3ccc4ccc(-c5cn(-c6cccc(NC(=O)CN(CC)CC)c6)nn5)cc4c3)nn2)c1", "target or system": "RCC4", "test": "PCR angiogenesis array, refers to: TEK", "setting": "5 x IC50, 4 h, normoxia", "how to read": "reference: untreated", "quantity": "fold regulation", "value": "2.51 fold"}
{"Structure (SMILES)": "Cc1ncsc1-c1ccc(C(C)NC(=O)C2CC(O)CN2C(=O)C(NC(=O)CCCCCCCCCCN2CCCC(Nc3ncc(Cl)c(Nc4ccccc4S(=O)(=O)C(C)C)n3)C2)C(C)(C)C)cc1 (centres unmarked)", "target or system": "22Rv1", "test": "RNA-seq, refers to: RNF144A mRNA", "setting": "concentration not given", "how to read": "reference: DMSO", "quantity": "log2 fold change", "value": -1.78}
{"Structure (SMILES)": "COC1CN([C@H]2CC[C@H]([C@@]3(C)Oc4c(Cl)cc(C(=O)NCc5c(SC)cc(C)[nH]c5=O)c(C)c4O3)CC2)C1", "test": "RNA-seq, refers to: BMI1", "system": "human, whole blood", "setting": "dose not given, 24 h", "how to read": "reference: pretreatment baseline", "quantity": "log2 fold change", "value": 2.31}
{"Structure (SMILES)": "Cc1cc(NC2CCN(C)CC2)ccc1-c1cc2c(N3CCC[C@H](C(=O)Nc4ccc(C#N)cc4)C3)ncnc2[nH]1", "target or system": "NCI-H2228", "test": "cell growth or viability, MTT", "setting": "0.2 µg/mL, 72 h", "quantity": "inhibition", "value": "66.1%"}
{"Structure (SMILES)": "Cn1ncc(-c2ccc3c(=O)[nH]nc(CN)c3c2)c1-c1c(F)c(Cl)cc(OC2CC2)c1C#N", "target or system": "CAKI-2", "test": "cell viability, inhibitor, CellTiter-Glo", "setting": "120 h, baseline-subtracted", "quantity": "IC50", "value": "2600 nM"}
